Experimental data pooled from the literature.
Compare with care: the assays were run in different laboratories.

SMILES = CONC(=O)[C@H]1[C@@H](O)[C@@]2(O)c3c(cc(OC)nc3OC)O[C@@]2(c2ccc(C#N)cc2)[C@@H]1c1ccccc1; system = mouse; setting = oral, 0.5 mg/kg three times weekly, two weeks; tolerability = not toxic
SMILES = O=C(NCCCCc1ccccc1)n1c(=O)oc2cc(-c3ccc(F)cc3)ccc21; system = mouse; setting = intraperitoneal, 10 mg/kg; tolerability = not toxic
SMILES = COc1ccc2c(c1)c1c(C)c3cnccc3c(C)c1n2CCCN1CCN(C)CC1; system = mouse, LPS-induced lung inflammation; tolerability = not toxic
SMILES = CC1=C(/C=C/C(=O)N2CCN(C(N)=O)CC2)C(C)(C)CCC1; system = T17M RHO transgenic mouse; setting = oral, daily dosing; tolerability = not toxic
SMILES = O=C(N[C@@H](Cc1coc2ccccc12)B(O)O)[C@@H]1C[C@H]2CC[C@@H]1O2; system = mouse; setting = oral, 1 and 10 mg/kg daily or intermittent; tolerability = not toxic
SMILES = O=C1C=CC(=O)C(c2cc(Cl)ccc2Cl)=C1; system = mouse; setting = po, 30 mg/kg; tolerability = not toxic
SMILES = C=CC(=O)N1CCCC(n2c(=O)c3ncccc3n(Cc3ccc(Oc4ccccc4)cc3)c2=O)C1 (stereo not drawn); system = NOD-Scid mouse, Rec1 xenograft; setting = intraperitoneal, 200 mg/kg daily, 5 days/week; tolerability = not toxic
SMILES = N=C(N)Nc1ccc(-c2nc3ccc(-c4ccc5nc(-c6ccc(NC(=N)N)cc6)[nH]c5c4)cc3[nH]2)cc1; system = FVB mouse; setting = intraperitoneal, 40 mg/kg daily, 7 days; tolerability = not toxic
SMILES = CCc1cnc(NC(=O)c2cc(S(=O)(=O)N3CCOCC3)ccc2N(C)C2CCCC2)s1; system = mouse, H1975-OR xenograft; setting = intraperitoneal, 10 mg/kg; tolerability = not toxic

Some of these lines once more:
SMILES = O=C(N[C@@H](Cc1coc2ccccc12)B(O)O)[C@@H]1C[C@H]2CC[C@@H]1O2; system = mouse; setting = oral, 1 and 10 mg/kg daily or intermittent; tolerability = not toxic
